Measured values collected from several papers.
A part holds a random share of what one study measured.

Series 1
Target: Interferon regulatory factor 7, full length, phosphomimetic (IRF7, Homo sapiens, UniProt Q92985, residues 1-503, S101K/S471D/S472D/S475D/S476D/S477D/S483D/S484D/S487D)
Method: protein-binding microarray
Form: double-stranded DNA, one strand shown
Medium: in vitro
Tested at: 250 nM
Setting: 60-bp whole probe
Together with: salmon DNA 0.4 mg/ml
Relative to: random background probes
Direction: higher = stronger binding
Shared flanks, not repeated: GCCTAGCAC … GTCTTGATTCGCTTGACGCTGCTG
Construct (chain): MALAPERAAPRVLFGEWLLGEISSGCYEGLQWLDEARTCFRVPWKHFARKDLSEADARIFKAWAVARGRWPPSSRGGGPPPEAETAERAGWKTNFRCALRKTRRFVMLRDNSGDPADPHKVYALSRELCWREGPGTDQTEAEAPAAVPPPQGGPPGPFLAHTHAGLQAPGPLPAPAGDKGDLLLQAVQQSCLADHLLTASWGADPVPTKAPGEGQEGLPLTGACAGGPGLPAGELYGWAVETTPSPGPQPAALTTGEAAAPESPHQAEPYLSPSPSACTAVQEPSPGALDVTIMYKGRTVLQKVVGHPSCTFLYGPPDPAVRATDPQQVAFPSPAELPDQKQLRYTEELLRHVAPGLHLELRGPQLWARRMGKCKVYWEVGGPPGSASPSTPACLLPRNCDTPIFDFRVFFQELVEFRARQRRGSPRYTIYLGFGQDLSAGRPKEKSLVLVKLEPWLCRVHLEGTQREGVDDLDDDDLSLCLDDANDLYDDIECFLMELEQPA
`GACGCACTGGGTCTCGGGACGTGCTAG` has a log fluorescence of -0.0753 z-score.
With `GGTCTTCTGGGCTGTTTGATCGTGCTA` the log fluorescence was -0.505 z-score.
For `GACGAACGGGGGTTTCGAGACGTGCTA`, the log fluorescence was 2.92 z-score.
For `ACAAGTTTCTCCTTTCCAAAGTGCTAG`, the log fluorescence was 3.56 z-score.
`CTCCAACAAGGCTATCCCTCGTGCTAG` gave a log fluorescence of -0.49 z-score.
`GACGGTTTCGGGACGGGGGACGTGCTA` has a log fluorescence of 6.8 z-score.
With `GACGTTCTCCTTCTCCTGACGTGCTAG` the log fluorescence was 0.532 z-score.
With `TTAGAACTGGCGTTTCGATTAGTGCTA` the log fluorescence was 4.32 z-score.
For `TTATGACTGGACACTGGGTTAGTGCTA`, the log fluorescence was 0.00294 z-score.
With `GACTGACTGGGTTTCGGGACGTGCTAG` the log fluorescence was 2.05 z-score.
For `TTTATTTTCAGTATTACCTCGTGCTAG`, the log fluorescence was 1.04 z-score.
`TTAGGTCTCGGACGGGGTTAGTGCTAG` gave a log fluorescence of 0.187 z-score.
`TTAGGTATCGGGCCTGGGTTAGTGCTA` has a log fluorescence of 0.135 z-score.
With `CTCCCTTTCTCTCTGTGACAGTGCTAG` the log fluorescence was 1.29 z-score.
With `TTAGAACTGGGGACTGGATAAGTGCTA` the log fluorescence was -0.509 z-score.
With `TTGCTTGTGTTTATTGTGACGTGCTAG` the log fluorescence was -0.449 z-score.
`TCATTTCTCTGCTACCCTACTGTGCTA` has a log fluorescence of 1.93 z-score.
`TTAGGTTTCGGTCTCGGGTAGTGCTAG` has a log fluorescence of 7.67 z-score.
`TTAGGTTCCGACACTGGGTTAGTGCTA` gave a log fluorescence of 0.132 z-score.
For `TCAACTTTCCCCTTCCTACTGTGCTAG`, the log fluorescence was 1.57 z-score.
The log fluorescence of `TCAAATTTCCCTCTGCTACTGTGCTAG` is reported as 0.789 z-score.
With `AACGAACTGAGTTTCGAGACGTGCTAG` the log fluorescence was 3.62 z-score.
The log fluorescence of `TTAGGTCTCCTTATGCTTTAGTGCTAG` is reported as -0.0327 z-score.
`GCCGGTTTCGGACTGGGGACGTGCTAG` gave a log fluorescence of 5.03 z-score.
For `CTATTTTTCCCCTGCACTCAGTGCTAG`, the log fluorescence was 2.53 z-score.

Series 2
Target: PABPC1L2, full length, GST fusion (mouse, UniProt A0ABA7IW68)
Method: RNAcompete
Form: RNA
Medium: in vitro
Tested at: 20 nM
Setting: 7-mer, probes averaged, single round
Relative to: mean of 7-mers
Direction: higher = stronger binding
The 7-mer Z-score of `GAAAGUU` is reported as 0.55.
`GUUUCGA` has a 7-mer Z-score of -0.298.
With `GUUGGGG` the 7-mer Z-score was 0.111.
`CGUUUAC` has a 7-mer Z-score of -0.315.
`GUGUGCC` gave a 7-mer Z-score of -0.345.
With `CGAACUA` the 7-mer Z-score was -0.0138.
The 7-mer Z-score of `AGGGGAC` is reported as 0.358.
The 7-mer Z-score of `ACCUGUG` is reported as -0.186.
`GAAUCCC` has a 7-mer Z-score of -0.248.
With `ACCCGAU` the 7-mer Z-score was -0.161.
With `ACCCGAA` the 7-mer Z-score was 0.0478.
The 7-mer Z-score of `AGCGGCU` is reported as 0.0116.
The 7-mer Z-score of `ACCUGAG` is reported as -0.166.
`AGAAGCC` has a 7-mer Z-score of -0.22.
The 7-mer Z-score of `AAGUAUC` is reported as 0.119.
`CUAUGGG` gave a 7-mer Z-score of -0.0264.
For `AGUCUGA`, the 7-mer Z-score was -0.177.
`GGAAGCA` gave a 7-mer Z-score of 0.0225.
The 7-mer Z-score of `CCGAAUU` is reported as -0.2.
With `AACAGGC` the 7-mer Z-score was 0.586.
`CUAUAAU` has a 7-mer Z-score of -0.126.
For `GCCUUCG`, the 7-mer Z-score was -0.429.
For `CGUUAUC`, the 7-mer Z-score was -0.374.
With `CGGCUGA` the 7-mer Z-score was -0.0464.
`ACGGAUA` has a 7-mer Z-score of 0.106.

Series 3
Target: RING finger protein unkempt homolog, zinc fingers 1-6, GST-SBP tag (UNK, Homo sapiens, UniProt Q9C0B0, residues 30-357)
UniProt Q9C0B0, sequence (30-357, looked up): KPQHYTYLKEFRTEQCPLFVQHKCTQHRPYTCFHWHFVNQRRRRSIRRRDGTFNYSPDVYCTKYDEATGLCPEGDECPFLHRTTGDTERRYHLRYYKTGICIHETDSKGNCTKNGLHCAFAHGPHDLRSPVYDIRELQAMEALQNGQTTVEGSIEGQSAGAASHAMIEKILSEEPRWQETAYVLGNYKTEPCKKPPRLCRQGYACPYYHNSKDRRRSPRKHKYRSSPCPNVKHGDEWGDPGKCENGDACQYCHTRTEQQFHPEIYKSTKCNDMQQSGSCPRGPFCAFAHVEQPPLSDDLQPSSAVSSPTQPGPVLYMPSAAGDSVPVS
Method: RNA Bind-n-Seq
Form: RNA
Medium: in vitro
Tested at: not given
Setting: RNA with constant flanks, ends assumed
Relative to: input RNA pool
Direction: higher = stronger binding
`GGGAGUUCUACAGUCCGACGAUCUCAAGUAGAUGUUUUUCUGUUAUGUAAGCAAUAAUUUUUCCGUGUCUUAUUGAGUAUGGCCCGCGAUUAUUUAUUACAUGCUAGAUGGGUUCUUUGCAUGUGGGUUCCAUAUAGGUGCAGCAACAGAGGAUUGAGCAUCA` gave a bound/input enrichment of 0.593 ratio.
`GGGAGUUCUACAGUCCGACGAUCCUCUCCAGUAGAAGCUGUGAGCACACCUAACACUCCUCGAAACCUUGCUGCCUGGAAAAUCCGCAUUCCGUAUGUAGACUUUUUUGAAGAUCCCUCCUCUGAAAGGAAAGAGAAGAAGGACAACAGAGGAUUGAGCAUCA` has a bound/input enrichment of 0.447 ratio.
`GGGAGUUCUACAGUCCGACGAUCGCUUUUAAUGGAGUUAUGUUUGGAGACAGGCCACUGAAAAUAAAUCACUCCAACAAUGCAACCGUAAAACCCCCUGAGAUGACACCUCAGGCUGCAGCUAAGGAGUUAGAAGAAGUAAUGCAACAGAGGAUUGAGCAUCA` gave a bound/input enrichment of 0.867 ratio.
With `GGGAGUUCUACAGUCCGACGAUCCCUGAAAAUGUCUAUAGUGUGCACUUCGAAAAAGAACAUAAAGCUGAGAAAGUCCCAGCAGCCGCCAACUACAUUAUGAAAAUACACAAUUUUACUAGCAAAUGCCUCUACUGUAAUCGCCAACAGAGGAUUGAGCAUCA` the bound/input enrichment was 5.53 ratio.
The bound/input enrichment of `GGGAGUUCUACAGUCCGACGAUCUGUACAACAUGUCUUUGUAAUUUAUAGAAACAAGUCUAGGUGUUGAUACCUUGUGGUCUAACCGAUGUGGAUACCAUUCAUUUUACUUGAAAUUUUGUUGUCUACUUUAAGUGUAUUUGCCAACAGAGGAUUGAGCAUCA` is reported as 0.282 ratio.
`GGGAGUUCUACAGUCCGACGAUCCUUUCUGACUAUCAGCGUAUUCGAGUGGAAAAUGUGUGUAAAAGGCUUAAUCUCCAGCCUUCCGCUUAUCUUUGGCAGAGAAACCAGGAAGAUUUGCUCAGAGAGAUGAUAUCAUCUAACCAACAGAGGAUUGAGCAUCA` has a bound/input enrichment of 0.17 ratio.
`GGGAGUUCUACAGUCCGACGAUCGGGGUUCCUAGUACUGCAAUUCGGGAAAUUUCUCUAUUAAAGGAACUUCGUCAUCCAAAUACCGUCAGUCUUCAGGAUGUGCUUAUGCAGGAUUCCAGGUUAUAUCUCAUCUUUGAGUUUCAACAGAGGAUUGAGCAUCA` gave a bound/input enrichment of 0.1 ratio.
For `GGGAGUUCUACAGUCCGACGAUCGUGUUUCAGAUUUUAAAGUGAUCACGAUUUGGUAGAUUACAGAUAUUUUUUUGUUGUUGUUUCCGUUUUUUCUUUUUCUUUUUUUAAGUAAACAGUCAAGUCAGGUCAAGCAAGACGUUACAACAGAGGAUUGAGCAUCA`, the bound/input enrichment was 0.772 ratio.
`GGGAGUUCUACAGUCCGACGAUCUCCUUGGAACCCAGUCAUAUAGGUGACCUGCAGAAAGCAGACACCAGUAGUCAAGGUGCUUCCGUGUUUCUCUCAAAGGACUACGAGAUAGAAAGUCAAAAUCCUCUGGCCUCUCCUACGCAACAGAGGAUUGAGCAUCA` has a bound/input enrichment of 0.428 ratio.
`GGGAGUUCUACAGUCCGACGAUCCUGAAGGAAACAGCAUUUAAAUUUAAAGCCCUGAAGAAGGUUGCACAGUUGGCAGUUAUAAACCGCCCCGAAAAGGCUUUUUGGAACUGGGUAGAAAAUUAUCCGGAUGAAUUUACAAAGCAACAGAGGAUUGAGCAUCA` has a bound/input enrichment of 0.213 ratio.
For `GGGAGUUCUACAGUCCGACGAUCUCCACGCCUGAGUUCUACCAAGUAUGCCACACCAAAAAGGAUUAUGAAGAAAUUGGACCCCGCAUUUGUCGUCACAAUCCAGUGUUUGGAGUCAUGUCGUAAAAUUGGCUUCAUAGUUAUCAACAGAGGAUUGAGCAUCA`, the bound/input enrichment was 0.344 ratio.

Series 4
Target: Sal-like protein 4, full length isoform A (SALL4, Homo sapiens, UniProt Q9UJQ4, residues 1-1053)
UniProt Q9UJQ4, sequence (whole entry, looked up): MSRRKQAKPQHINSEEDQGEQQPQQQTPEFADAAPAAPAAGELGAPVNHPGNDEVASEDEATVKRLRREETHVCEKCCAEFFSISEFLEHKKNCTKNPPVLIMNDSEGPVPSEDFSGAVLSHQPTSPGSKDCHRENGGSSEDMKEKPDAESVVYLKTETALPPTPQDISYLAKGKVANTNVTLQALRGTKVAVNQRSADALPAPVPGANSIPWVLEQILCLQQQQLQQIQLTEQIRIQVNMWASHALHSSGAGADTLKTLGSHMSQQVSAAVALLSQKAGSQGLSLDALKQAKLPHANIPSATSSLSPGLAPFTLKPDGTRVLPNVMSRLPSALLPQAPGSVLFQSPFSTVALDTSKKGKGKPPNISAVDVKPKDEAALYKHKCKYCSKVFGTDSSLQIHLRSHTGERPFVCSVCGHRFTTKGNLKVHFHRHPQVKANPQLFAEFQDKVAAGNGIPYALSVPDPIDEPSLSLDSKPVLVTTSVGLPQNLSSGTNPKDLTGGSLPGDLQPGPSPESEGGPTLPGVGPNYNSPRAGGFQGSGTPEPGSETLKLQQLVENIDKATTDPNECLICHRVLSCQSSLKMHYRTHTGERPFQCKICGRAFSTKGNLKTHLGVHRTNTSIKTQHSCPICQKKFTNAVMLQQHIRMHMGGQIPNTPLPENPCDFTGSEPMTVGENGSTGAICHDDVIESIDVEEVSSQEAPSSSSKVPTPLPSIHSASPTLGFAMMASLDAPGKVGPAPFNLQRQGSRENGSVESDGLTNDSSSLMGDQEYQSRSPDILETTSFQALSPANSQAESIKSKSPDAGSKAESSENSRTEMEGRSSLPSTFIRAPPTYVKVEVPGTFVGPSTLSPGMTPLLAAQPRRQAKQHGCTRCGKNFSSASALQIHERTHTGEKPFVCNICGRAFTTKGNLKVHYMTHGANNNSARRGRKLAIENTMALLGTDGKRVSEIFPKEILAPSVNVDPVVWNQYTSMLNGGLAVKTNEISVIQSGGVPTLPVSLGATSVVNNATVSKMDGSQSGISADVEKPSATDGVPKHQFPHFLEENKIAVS
Method: universal PBM
Form: double-stranded DNA, one strand shown
Medium: in vitro
Tested at: 600 nM
Setting: 8-mer, flanks averaged, mean of replicates
Direction: higher = stronger binding
`GCACTATA` has an E-score of 0.136.
`CTGTTCCA` gave an E-score of -0.017.
With `CTCGACGC` the E-score was -0.155.
`CACCTTGA` has an E-score of -0.179.
The E-score of `AGAACCGG` is reported as -0.208.
`ACAATCGT` has an E-score of 0.21.
For `CAGGAATA`, the E-score was 0.177.
The E-score of `AGTAGTGA` is reported as 0.118.
The E-score of `CTACAGTC` is reported as -0.115.
`AGCGGAAT` gave an E-score of 0.0489.
For `CCGCGCAC`, the E-score was -0.316.
The E-score of `GGGAGGCA` is reported as -0.239.
`AGGCCGAA` gave an E-score of -0.172.
The E-score of `AATGCGCG` is reported as -0.102.
The E-score of `CCGACGAG` is reported as -0.22.
With `ACAGACTG` the E-score was -0.118.
`CGCCTCTC` has an E-score of -0.347.
For `TCCTGCCA`, the E-score was -0.156.
For `ACAGATTG`, the E-score was -0.0369.
`ACCGTGTG` gave an E-score of -0.2.
With `GTCCATTA` the E-score was 0.178.
The E-score of `CTGAACAA` is reported as 0.0979.

Some of these lines once more (series 3):
`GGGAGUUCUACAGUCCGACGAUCCUUUCUGACUAUCAGCGUAUUCGAGUGGAAAAUGUGUGUAAAAGGCUUAAUCUCCAGCCUUCCGCUUAUCUUUGGCAGAGAAACCAGGAAGAUUUGCUCAGAGAGAUGAUAUCAUCUAACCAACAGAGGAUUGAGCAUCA` has a bound/input enrichment of 0.17 ratio.
For `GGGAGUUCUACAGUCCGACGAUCGUGUUUCAGAUUUUAAAGUGAUCACGAUUUGGUAGAUUACAGAUAUUUUUUUGUUGUUGUUUCCGUUUUUUCUUUUUCUUUUUUUAAGUAAACAGUCAAGUCAGGUCAAGCAAGACGUUACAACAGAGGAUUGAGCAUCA`, the bound/input enrichment was 0.772 ratio.
With `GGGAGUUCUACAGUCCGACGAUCCCUGAAAAUGUCUAUAGUGUGCACUUCGAAAAAGAACAUAAAGCUGAGAAAGUCCCAGCAGCCGCCAACUACAUUAUGAAAAUACACAAUUUUACUAGCAAAUGCCUCUACUGUAAUCGCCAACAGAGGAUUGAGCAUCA` the bound/input enrichment was 5.53 ratio.
`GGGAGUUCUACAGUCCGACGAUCUCCUUGGAACCCAGUCAUAUAGGUGACCUGCAGAAAGCAGACACCAGUAGUCAAGGUGCUUCCGUGUUUCUCUCAAAGGACUACGAGAUAGAAAGUCAAAAUCCUCUGGCCUCUCCUACGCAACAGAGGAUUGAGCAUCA` has a bound/input enrichment of 0.428 ratio.
`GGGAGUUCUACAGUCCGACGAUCCUCUCCAGUAGAAGCUGUGAGCACACCUAACACUCCUCGAAACCUUGCUGCCUGGAAAAUCCGCAUUCCGUAUGUAGACUUUUUUGAAGAUCCCUCCUCUGAAAGGAAAGAGAAGAAGGACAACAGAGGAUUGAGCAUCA` has a bound/input enrichment of 0.447 ratio.
